{"data": "Measurements collected from several papers", "BMPR2": "Bone morphogenetic protein receptor type-2 (BMPR2, Homo sapiens, UniProt Q13873)", "TLR7": "Toll-like receptor 7 (TLR7, Homo sapiens, UniProt Q9NYK1)", "SLC6A6 G62A": "Sodium- and chloride-dependent taurine transporter (SLC6A6, Homo sapiens, UniProt P31641, G62A)", "TOP2A": "DNA topoisomerase 2-alpha (TOP2A, Homo sapiens, UniProt P11388)", "ZBTB11/CRBN": "ZBTB11/CRBN (Homo sapiens, UniProt O95625+Q96SW2)", "T1": "RNA aptamer; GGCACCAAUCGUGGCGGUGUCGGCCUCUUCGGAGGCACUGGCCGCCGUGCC", "note": "Lines come from different studies, so protocols differ. Values joined by “and” are separate records of one study, mostly repeats; a detail may differ. Numbers after ± are the reported error.", "chain of UniProt P05164 (whole entry, looked up)": "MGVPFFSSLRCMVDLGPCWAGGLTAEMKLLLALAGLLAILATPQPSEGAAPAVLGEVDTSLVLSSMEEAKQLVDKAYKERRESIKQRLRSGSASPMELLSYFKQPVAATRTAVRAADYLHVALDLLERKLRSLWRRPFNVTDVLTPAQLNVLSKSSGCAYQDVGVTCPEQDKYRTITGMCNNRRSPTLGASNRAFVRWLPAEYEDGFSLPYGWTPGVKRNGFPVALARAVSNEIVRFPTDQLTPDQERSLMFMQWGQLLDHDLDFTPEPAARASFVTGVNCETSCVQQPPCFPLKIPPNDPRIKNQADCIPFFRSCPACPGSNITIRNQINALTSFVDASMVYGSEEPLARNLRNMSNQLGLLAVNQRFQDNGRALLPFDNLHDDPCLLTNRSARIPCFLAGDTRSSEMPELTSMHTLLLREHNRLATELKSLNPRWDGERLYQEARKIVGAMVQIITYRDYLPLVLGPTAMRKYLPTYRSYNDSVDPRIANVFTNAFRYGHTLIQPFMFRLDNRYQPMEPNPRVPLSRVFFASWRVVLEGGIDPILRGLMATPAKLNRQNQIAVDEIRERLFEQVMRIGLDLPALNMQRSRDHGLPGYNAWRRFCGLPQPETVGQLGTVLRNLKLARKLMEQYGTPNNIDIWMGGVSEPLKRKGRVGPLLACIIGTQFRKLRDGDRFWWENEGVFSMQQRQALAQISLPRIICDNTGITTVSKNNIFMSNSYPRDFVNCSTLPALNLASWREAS", "chain of UniProt P51575 (whole entry, unmodified, looked up)": "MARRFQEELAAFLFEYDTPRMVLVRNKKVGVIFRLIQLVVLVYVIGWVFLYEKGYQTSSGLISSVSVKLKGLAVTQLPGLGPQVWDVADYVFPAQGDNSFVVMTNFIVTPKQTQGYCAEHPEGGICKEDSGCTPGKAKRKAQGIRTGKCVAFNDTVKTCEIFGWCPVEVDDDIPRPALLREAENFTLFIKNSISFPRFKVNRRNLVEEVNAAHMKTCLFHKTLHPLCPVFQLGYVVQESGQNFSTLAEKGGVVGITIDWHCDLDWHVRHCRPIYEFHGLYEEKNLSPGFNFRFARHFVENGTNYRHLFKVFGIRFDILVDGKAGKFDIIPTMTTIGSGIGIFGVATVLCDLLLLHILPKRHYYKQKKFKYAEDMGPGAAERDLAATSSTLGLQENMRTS", "chain of UniProt P28843 (whole entry, looked up)": "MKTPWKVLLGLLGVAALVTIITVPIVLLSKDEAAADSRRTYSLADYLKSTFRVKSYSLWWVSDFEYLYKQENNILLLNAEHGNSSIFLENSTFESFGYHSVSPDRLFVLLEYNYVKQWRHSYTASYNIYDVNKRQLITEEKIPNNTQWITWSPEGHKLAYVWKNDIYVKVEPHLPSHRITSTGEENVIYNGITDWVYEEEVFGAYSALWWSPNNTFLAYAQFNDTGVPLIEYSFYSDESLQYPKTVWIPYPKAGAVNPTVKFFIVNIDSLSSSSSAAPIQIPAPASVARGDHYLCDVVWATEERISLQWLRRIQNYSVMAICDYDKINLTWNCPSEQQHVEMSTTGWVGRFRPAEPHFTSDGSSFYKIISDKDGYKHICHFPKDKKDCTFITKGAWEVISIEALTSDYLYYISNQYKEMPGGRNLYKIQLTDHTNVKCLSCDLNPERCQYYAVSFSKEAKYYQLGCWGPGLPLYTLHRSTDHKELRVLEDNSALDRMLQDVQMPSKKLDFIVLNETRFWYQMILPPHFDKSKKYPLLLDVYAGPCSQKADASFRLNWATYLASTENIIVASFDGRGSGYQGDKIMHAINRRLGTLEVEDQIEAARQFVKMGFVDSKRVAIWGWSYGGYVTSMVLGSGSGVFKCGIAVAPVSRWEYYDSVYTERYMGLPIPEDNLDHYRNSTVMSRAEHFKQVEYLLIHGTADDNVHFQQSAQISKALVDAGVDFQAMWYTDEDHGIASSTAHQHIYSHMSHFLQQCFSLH", "chain of UniProt Q13873 (whole entry, looked up)": "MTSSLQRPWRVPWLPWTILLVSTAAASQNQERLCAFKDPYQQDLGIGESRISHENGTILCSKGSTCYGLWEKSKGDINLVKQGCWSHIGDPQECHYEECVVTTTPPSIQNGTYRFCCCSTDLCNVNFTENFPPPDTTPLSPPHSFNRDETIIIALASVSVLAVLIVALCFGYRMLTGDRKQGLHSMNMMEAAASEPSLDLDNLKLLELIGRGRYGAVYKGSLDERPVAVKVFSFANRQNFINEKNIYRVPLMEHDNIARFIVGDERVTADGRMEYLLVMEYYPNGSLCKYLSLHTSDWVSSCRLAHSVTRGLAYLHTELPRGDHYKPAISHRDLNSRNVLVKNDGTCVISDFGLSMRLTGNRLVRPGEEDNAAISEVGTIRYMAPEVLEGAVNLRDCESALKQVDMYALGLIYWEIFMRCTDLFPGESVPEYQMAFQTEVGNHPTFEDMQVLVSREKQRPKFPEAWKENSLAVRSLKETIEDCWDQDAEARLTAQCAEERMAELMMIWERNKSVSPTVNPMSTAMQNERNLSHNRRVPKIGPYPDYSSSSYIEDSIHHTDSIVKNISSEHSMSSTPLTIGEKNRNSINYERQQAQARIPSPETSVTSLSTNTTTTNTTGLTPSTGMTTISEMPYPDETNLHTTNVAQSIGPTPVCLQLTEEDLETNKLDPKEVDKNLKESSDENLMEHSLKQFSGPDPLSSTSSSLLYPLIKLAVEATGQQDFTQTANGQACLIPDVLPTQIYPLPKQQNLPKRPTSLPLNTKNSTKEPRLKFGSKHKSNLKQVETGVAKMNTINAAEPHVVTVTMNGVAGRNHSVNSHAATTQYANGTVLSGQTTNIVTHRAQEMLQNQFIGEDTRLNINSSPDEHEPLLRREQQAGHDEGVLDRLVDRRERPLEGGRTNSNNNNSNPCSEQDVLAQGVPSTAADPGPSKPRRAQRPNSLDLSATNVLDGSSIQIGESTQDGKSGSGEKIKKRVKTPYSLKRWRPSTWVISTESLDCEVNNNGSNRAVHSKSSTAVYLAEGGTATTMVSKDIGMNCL", "chain of UniProt O76090 (whole entry, looked up)": "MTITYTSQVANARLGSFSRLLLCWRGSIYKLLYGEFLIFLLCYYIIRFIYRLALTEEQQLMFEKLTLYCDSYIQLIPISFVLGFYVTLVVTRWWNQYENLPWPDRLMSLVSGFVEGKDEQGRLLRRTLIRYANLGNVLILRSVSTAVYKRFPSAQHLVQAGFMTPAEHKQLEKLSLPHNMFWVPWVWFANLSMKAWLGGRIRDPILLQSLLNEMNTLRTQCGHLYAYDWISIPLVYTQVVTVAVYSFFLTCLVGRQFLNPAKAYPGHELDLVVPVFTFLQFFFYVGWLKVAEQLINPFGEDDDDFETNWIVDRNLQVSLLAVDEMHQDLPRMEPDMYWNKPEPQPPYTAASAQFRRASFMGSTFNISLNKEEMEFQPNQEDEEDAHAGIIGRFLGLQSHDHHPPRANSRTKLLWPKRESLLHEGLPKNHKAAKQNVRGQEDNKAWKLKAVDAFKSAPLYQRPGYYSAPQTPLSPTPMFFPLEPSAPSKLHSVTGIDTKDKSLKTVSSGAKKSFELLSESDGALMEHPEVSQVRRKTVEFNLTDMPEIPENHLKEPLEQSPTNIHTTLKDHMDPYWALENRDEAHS", "chain of UniProt Q9NYK1 (whole entry, unmodified, looked up)": "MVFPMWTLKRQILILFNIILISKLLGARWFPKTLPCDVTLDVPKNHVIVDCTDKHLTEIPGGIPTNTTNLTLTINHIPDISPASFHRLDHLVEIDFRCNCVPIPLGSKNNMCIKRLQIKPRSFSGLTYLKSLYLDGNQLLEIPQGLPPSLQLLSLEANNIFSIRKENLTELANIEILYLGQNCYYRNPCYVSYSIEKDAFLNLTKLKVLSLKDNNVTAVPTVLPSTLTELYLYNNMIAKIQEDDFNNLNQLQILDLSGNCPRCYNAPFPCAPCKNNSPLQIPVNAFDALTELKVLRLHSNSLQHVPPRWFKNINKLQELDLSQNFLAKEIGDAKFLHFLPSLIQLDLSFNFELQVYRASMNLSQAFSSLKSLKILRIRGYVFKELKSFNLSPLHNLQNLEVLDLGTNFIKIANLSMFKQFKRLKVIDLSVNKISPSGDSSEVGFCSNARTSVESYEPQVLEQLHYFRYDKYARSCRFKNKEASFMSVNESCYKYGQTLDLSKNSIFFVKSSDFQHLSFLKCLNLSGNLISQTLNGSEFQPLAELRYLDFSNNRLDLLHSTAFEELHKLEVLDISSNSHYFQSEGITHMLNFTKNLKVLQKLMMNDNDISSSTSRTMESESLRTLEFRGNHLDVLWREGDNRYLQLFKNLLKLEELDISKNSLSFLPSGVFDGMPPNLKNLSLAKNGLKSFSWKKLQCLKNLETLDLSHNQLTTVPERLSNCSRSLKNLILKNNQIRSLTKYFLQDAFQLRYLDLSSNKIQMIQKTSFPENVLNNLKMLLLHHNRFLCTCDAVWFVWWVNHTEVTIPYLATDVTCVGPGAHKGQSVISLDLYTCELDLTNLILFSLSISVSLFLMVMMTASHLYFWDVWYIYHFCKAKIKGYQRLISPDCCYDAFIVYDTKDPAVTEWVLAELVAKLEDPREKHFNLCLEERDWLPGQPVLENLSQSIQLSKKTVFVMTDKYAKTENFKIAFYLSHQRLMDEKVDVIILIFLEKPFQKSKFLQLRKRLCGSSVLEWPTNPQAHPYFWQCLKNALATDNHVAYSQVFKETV", "chain of UniProt Q96SW2 (whole entry, looked up)": "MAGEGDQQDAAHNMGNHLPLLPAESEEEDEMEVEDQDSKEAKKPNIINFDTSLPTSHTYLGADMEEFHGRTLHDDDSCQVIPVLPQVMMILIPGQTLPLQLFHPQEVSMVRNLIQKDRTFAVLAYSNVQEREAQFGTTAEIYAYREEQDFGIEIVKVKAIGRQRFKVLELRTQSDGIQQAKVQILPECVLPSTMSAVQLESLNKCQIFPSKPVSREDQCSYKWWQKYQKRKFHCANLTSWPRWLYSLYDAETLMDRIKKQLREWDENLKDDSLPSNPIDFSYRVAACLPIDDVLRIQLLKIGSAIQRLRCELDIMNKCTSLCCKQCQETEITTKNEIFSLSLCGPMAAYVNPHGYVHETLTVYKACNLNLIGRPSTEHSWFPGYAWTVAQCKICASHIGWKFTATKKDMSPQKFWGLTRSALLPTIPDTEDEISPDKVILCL"}
{"Compound": "C=CC(=O)N1CCC(COCC(=O)N2CCN(c3nc(-c4cnc(N)nc4C(F)F)nc(N4CCOC[C@@H]4C)n3)CC2)CC1", "target": "BMPR2", "assay": "KINOMEscan", "setting": "1 µM", "how to read": "reference: DMSO control", "endpoint": "remaining binding", "value": "98%"}
{"Compound": "OC[C@H]1OC(O)[C@H](O)[C@@H](O)[C@@H]1O (some centres unmarked)", "target": "Hexokinase-3 (HK3, Homo sapiens, UniProt P52790, D264A/R265A)", "assay": "substrate inhibitor", "how to read": "reference: wild type", "endpoint": "Ki fold increase", "value": "≥ 50 fold"}
{"Compound": "N#Cc1ccc2c(-c3ccncc3)c(-c3ccc(F)cc3)nn2c1", "target": "Cyclin-G-associated kinase (GAK, Homo sapiens, UniProt O14976)", "assay": "NanoBRET", "test system": "HEK293", "setting": "1.0 µM", "endpoint": "receptor occupancy", "value": "40 to 70%"}
{"Compound": "O=C(O)c1ccc(Nc2ncc3c(n2)-c2ccc(Cl)cc2C(c2c(F)cccc2F)=NC3)cc1", "target": "MAPK2(m)", "assay": "kinase activity", "setting": "1 µM", "endpoint": "remaining activity", "value": "105%"}
{"Compound": "CN(CCO)c1ccc(/C=C(\\C#N)c2ccc(C#N)cc2)cc1", "target": "T1, RNA aptamer", "assay": "fluorescence titration, Hill fit", "setting": "apparent", "endpoint": "Kd", "value": "821 nM"}
{"Compound": "Nc1nc2c(ncn2[C@H]2C[C@H](O)[C@@H](CO)O2)c(=O)[nH]1", "target": "deoxyribonucleoside phosphotransferase I (Trichomonas vaginalis)", "assay": "substrate", "setting": "together with: p-nitrophenylphosphate 100 mM", "endpoint": "Km", "value": "2250 ± 220 µM"}
{"Compound": "CC(=O)N[C@H](C(=O)N1C[C@H](O)C[C@H]1C(=O)NCc1ccc(-c2scnc2C)cc1)C(C)(C)SCCCCCCNC(=O)C[C@@H]1N=C(c2ccc(Cl)cc2)c2c(sc(C)c2C)-n2c(C)nnc21", "target": "Bromodomain-containing protein 3, BD2 (BRD3, Homo sapiens, UniProt Q15059)", "assay": "binding, ITC", "setting": "25 °C, compound in cell, protein in syringe", "endpoint": "ΔG", "value": "-10.1 ± 0.1 kcal/mol"}
{"Compound": "CC[C@@H]1[C@H](F)C(=O)N[C@@H]1COc1nccc2cc(C(N)=O)c(OC)cc12", "target": "Serine/threonine-protein kinase 24 (STK24, Homo sapiens, UniProt Q9Y6E0)", "assay": "ATP-site probe binding, ActivX profiling, measured: MST3", "test system": "THP-1 cell lysate", "setting": "0.01 mM, Lys1 site", "endpoint": "inhibition", "value": "3.4%"}
{"Compound": "CN1CCN(c2cc(-c3ccncc3)c(-c3ccc4ccccc4c3)nn2)CC1", "target": "C-C chemokine receptor type 8 (CCR8, Homo sapiens, UniProt P51685)", "assay": "agonist, FLIPR", "setting": "12.5 µM", "endpoint": "activation", "value": "-4.2%"}
{"Compound": "CCOC(=O)[C@](CC)(CCCS(=O)(=O)CCOCCOCCNC(=O)OC(C)(C)C)NC(=O)c1ccc(C2CC2)c(Cc2ccc(F)cc2)n1", "target": "Cannabinoid receptor 2 (CNR2, Homo sapiens, UniProt P34972)", "assay": "cAMP level", "setting": "together with: forskolin", "how to read": "reference: hCB1 over hCB2", "endpoint": "selectivity ratio", "value": "≥ 577 fold"}
{"Compound": "CCCCc1nc2c(N)nc3ccccc3c2n1Cc1cccc2ccccc12", "target": "TLR7", "assay": "reporter gene, agonist", "test system": "human cells", "setting": "concentration not given", "endpoint": "agonist activity", "value": "inactive"}
{"Compound": "Nc1ncnc2c1ncn2[C@@H]1O[C@H](COP(=O)(O)OP(=O)(O)OP(=O)(O)O)[C@@H](O)[C@H]1O", "target": "Creatine kinase U-type, mitochondrial (CKMT1A, Homo sapiens, UniProt P12532)", "assay": "substrate, ADP-Glo luminescence", "setting": "pH 8.5, forward reaction, WT mutant, together with: second substrate in excess", "endpoint": "Km", "value": "100 ± 30 µM"}
{"Compound": "Nc1ccc(C(=O)O)cc1", "target": "BEST1 (Homo sapiens, UniProt O76090)", "assay": "whole-cell patch clamp", "test system": "HEK293 transiently expressing channel", "setting": "concentration not given, membrane potential -20 mV", "endpoint": "current density", "value": "-19 pA/pF and -10.4 pA/pF and -15.4 pA/pF and -10 pA/pF and -16.8 pA/pF and -20.4 pA/pF and -9.71 pA/pF"}
{"Compound": "NCCCCC(=O)O", "target": "SLC6A6 G62A", "assay": "binding, microscale thermophoresis", "setting": "1 mM, room temperature, together with: 50 nM labelled protein", "how to read": "higher = more binding", "endpoint": "normalised MST signal", "value": 0.0551}
{"Compound": "Nc1ncnc2c1ncn2[C@@H]1O[C@H](COP(=O)(O)CP(=O)(O)OP(=O)(O)O)[C@@H](O)[C@H]1O", "target": "P2X purinoceptor 1 (P2RX1, Homo sapiens, UniProt P51575, K140A)", "assay": "calcium influx", "setting": "31.6 nM", "how to read": "reference: ionomycin response", "endpoint": "calcium influx", "value": "1.03% and 0% and 6.81% and 0.489%"}
{"Compound": "Nc1nc2c(ncn2[C@@H]2O[C@H](COP(=O)(O)O)[C@@H](O)[C@H]2O)c(=O)[nH]1", "target": "GUK1 (Homo sapiens, UniProt Q16774)", "assay": "ITC", "setting": "concentration not given", "endpoint": "ΔG of binding", "value": "-6.01 kcal/mol"}
{"Compound": "O=c1nc(SCc2cc(F)cc(C(F)(F)F)c2)nc(SCc2ccc3nc(Cl)ccc3c2)[nH]1", "target": "TOP2A", "assay": "decatenation", "setting": "125 µM", "endpoint": "mean decatenated DNA", "value": "0%"}
{"Compound": "Nc1nc2c(ncn2[C@@H]2O[C@@H]3COP(=O)(O)O[C@H]4[C@@H](O)[C@H](n5cnc6c(=O)[nH]c(N)nc65)O[C@@H]4COP(=O)(O)O[C@H]3[C@H]2O)c(=O)[nH]1", "target": "Cell cycle histidine kinase CckA, CA domain (Caulobacter vibrioides, UniProt Q9X688)", "assay": "isothermal titration calorimetry", "test system": "Caulobacter crescentus", "setting": "concentration not given, 12 °C, together with: ADP 5 mM", "endpoint": "binding enthalpy (ΔH)", "value": "2.2 kcal/mol"}
{"Compound": "CCC(C)(NCCc1ccc(C(F)(F)F)c(Cl)c1)c1cccc(NC2=CC(=O)N(C3CCC(=O)NC3=O)C2=O)c1 (centres unmarked)", "target": "ZBTB11/CRBN", "assay": "protein degradation, degrader, HiBiT luminescence", "test system": "MOLT-4", "endpoint": "Dmax", "value": "71%"}
{"Compound": "O=C(CCCc1ccccc1)C(=O)NCCc1ccc(Oc2ccc(C(F)(F)F)cn2)cc1", "target": "Dipeptidyl peptidase 4 (Dpp4, Mus musculus, UniProt P28843)", "assay": "inhibitor", "test system": "mouse, BAT cytosol proteome", "setting": "10 µM", "how to read": "reference: DMSO, lower = stronger inhibition", "endpoint": "probe-enriched protein abundance", "value": "2910 a.u. and 2460 a.u. and 2530 a.u."}
{"Compound": "C=CC(=O)N1CCC(C(=O)NCC(=O)N2CCN(c3nc(-c4cnc(N)nc4C(F)F)nc(N4CCOCC4)n3)CC2)CC1", "target": "BMPR2", "assay": "KINOMEscan", "setting": "1 µM", "endpoint": "remaining binding", "value": "71%"}
{"Compound": "CC(NC(=O)CCCc1ccc2ccc3cccc4ccc1c2c34)C(=O)NO (centres unmarked)", "target": "Histone deacetylase 8 (HDAC8, Homo sapiens, UniProt Q9BY41)", "assay": "ITC", "test system": "Tris-HCl buffer", "setting": "concentration not given, 298 K", "endpoint": "binding stoichiometry", "value": 0.9}
{"Compound": "C[C@@H](c1ccc(-n2cnc3c(N)ncnc32)cc1)N1CCc2nn(C)c(Cc3ccccc3)c2C1=O", "target": "BMPR2", "assay": "KINOMEscan", "setting": "0.1 µM", "how to read": "reference: DMSO", "endpoint": "remaining binding", "value": "70%"}
{"Compound": "CCC(C)(NCCc1cc(C(F)(F)F)cc(C(F)(F)F)c1)c1cccc(NC2=CC(=O)N(C3CCC(=O)NC3=O)C2=O)c1 (centres unmarked)", "target": "ZBTB11/CRBN", "assay": "protein degradation, degrader, HiBiT luminescence", "test system": "MOLT-4", "endpoint": "Dmax", "value": "62%"}
{"Compound": "Cc1cn([C@H]2C[C@H](N=[N+]=[N-])[C@@H](CO)O2)c(=O)[nH]c1=O", "target": "Carbonic anhydrase 12 (CA12, Homo sapiens, UniProt O43570)", "assay": "stopped-flow CO2 hydration", "how to read": "reference: Ki hCA VI over Ki hCA XII", "endpoint": "selectivity ratio", "value": 0.86}
{"Compound": "CC(C)OCCn1c(=S)[nH]c(=O)c2[nH]ccc21", "target": "Myeloperoxidase (MPO, Homo sapiens, UniProt P05164)", "assay": "inhibitor, cholesteryl ester hydroperoxide", "setting": "10 µM", "how to read": "reference: control", "endpoint": "LDL lipid peroxidation", "value": "4.68% and 6.2% and 12.1% and 11.7%"}
{"Compound": "NCCCC(=O)O", "target": "SLC6A6 G62A", "assay": "binding, microscale thermophoresis", "setting": "977 nM, room temperature, together with: 50 nM labelled protein", "how to read": "higher = more binding", "endpoint": "normalised MST signal", "value": -0.0256}
{"Compound": "CCC(=O)NS(=O)(=O)c1ccc(-c2c(-c3ccccc3)noc2C)cc1", "target": "Nuclear receptor subfamily 5 group A member 2 (NR5A2, Homo sapiens, UniProt O00482)", "assay": "reporter gene, Gal4 hybrid reporter", "setting": "50 µM", "how to read": "reference: vehicle", "endpoint": "activation", "value": "0.39 fold"}
{"Compound": "NCCCC[C@H](N)C(=O)Nc1ccc2ccccc2c1", "target": "rat neuron-specific aminopeptidase", "assay": "substrate", "endpoint": "Km", "value": "5 µM"}
{"Compound": "O=c1nc(SCc2cc(F)cc(C(F)(F)F)c2)nc(SCc2ccc3sccc3c2)[nH]1", "target": "TOP2A", "assay": "decatenation", "setting": "125 µM, replicate 1", "endpoint": "decatenated DNA", "value": "3.46%"}
{"Compound": "CCCCc1nc2c(s1)c(N)nc1ccccc12", "target": "TLR7", "assay": "reporter gene, agonist, NF-κB reporter", "test system": "HEK-Blue TLR7", "endpoint": "EC50", "value": "inactive"}
{"Compound": "NC(=O)c1ccc[n+]([C@@H]2O[C@H](COP(=O)(O)O)[C@@H](O)[C@H]2O)c1", "target": "ALDH-137", "assay": "enzyme activity, cofactor, NMNH formation", "setting": "apparent Km, together with: hexanal", "endpoint": "Km", "value": "37600 ± 3600 µM"}
{"note": "Repeated from above:"}
{"Compound": "CN(CCO)c1ccc(/C=C(\\C#N)c2ccc(C#N)cc2)cc1", "target": "T1, RNA aptamer", "assay": "fluorescence titration, Hill fit", "setting": "apparent", "endpoint": "Kd", "value": "821 nM"}
{"Compound": "Nc1nc2c(ncn2[C@H]2C[C@H](O)[C@@H](CO)O2)c(=O)[nH]1", "target": "deoxyribonucleoside phosphotransferase I (Trichomonas vaginalis)", "assay": "substrate", "setting": "together with: p-nitrophenylphosphate 100 mM", "endpoint": "Km", "value": "2250 ± 220 µM"}
{"Compound": "CC(=O)N[C@H](C(=O)N1C[C@H](O)C[C@H]1C(=O)NCc1ccc(-c2scnc2C)cc1)C(C)(C)SCCCCCCNC(=O)C[C@@H]1N=C(c2ccc(Cl)cc2)c2c(sc(C)c2C)-n2c(C)nnc21", "target": "Bromodomain-containing protein 3, BD2 (BRD3, Homo sapiens, UniProt Q15059)", "assay": "binding, ITC", "setting": "25 °C, compound in cell, protein in syringe", "endpoint": "ΔG", "value": "-10.1 ± 0.1 kcal/mol"}
{"Compound": "CC[C@@H]1[C@H](F)C(=O)N[C@@H]1COc1nccc2cc(C(N)=O)c(OC)cc12", "target": "Serine/threonine-protein kinase 24 (STK24, Homo sapiens, UniProt Q9Y6E0)", "assay": "ATP-site probe binding, ActivX profiling, measured: MST3", "test system": "THP-1 cell lysate", "setting": "0.01 mM, Lys1 site", "endpoint": "inhibition", "value": "3.4%"}
{"Compound": "CN1CCN(c2cc(-c3ccncc3)c(-c3ccc4ccccc4c3)nn2)CC1", "target": "C-C chemokine receptor type 8 (CCR8, Homo sapiens, UniProt P51685)", "assay": "agonist, FLIPR", "setting": "12.5 µM", "endpoint": "activation", "value": "-4.2%"}
